Results from different studies.
Parts stem from different laboratories: compare values within a part only. Positions count from the first letter of the parent shown.

Study 1
Target: FOSL1, bZIP domain (human)
Method: DHFR protein complementation
Medium: yeast
Notes: single substitutions, most at no-binding floor
Baseline: wild-type JUN-FOS pair
Reading: higher = stronger binding
Starting sequence: JUN, bZIP domain (human); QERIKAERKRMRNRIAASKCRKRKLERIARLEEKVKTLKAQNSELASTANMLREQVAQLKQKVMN; partner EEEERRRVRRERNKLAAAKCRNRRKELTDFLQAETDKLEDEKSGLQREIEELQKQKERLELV
Substitution	binding fitness
E54H	-0.635 natural log
K34E	-0.796 natural log
V35Q	-0.863 natural log
N42L	-0.536 natural log
K36N	-0.473 natural log
Q55N	-0.955 natural log
S47W	-0.522 natural log
N42T	-0.524 natural log

Study 2
Target: Signal transducer and activator of transcription 1-alpha/beta, full length (STAT1, Homo sapiens, UniProt P42224, residues 1-750)
UniProt P42224, sequence (whole entry, looked up): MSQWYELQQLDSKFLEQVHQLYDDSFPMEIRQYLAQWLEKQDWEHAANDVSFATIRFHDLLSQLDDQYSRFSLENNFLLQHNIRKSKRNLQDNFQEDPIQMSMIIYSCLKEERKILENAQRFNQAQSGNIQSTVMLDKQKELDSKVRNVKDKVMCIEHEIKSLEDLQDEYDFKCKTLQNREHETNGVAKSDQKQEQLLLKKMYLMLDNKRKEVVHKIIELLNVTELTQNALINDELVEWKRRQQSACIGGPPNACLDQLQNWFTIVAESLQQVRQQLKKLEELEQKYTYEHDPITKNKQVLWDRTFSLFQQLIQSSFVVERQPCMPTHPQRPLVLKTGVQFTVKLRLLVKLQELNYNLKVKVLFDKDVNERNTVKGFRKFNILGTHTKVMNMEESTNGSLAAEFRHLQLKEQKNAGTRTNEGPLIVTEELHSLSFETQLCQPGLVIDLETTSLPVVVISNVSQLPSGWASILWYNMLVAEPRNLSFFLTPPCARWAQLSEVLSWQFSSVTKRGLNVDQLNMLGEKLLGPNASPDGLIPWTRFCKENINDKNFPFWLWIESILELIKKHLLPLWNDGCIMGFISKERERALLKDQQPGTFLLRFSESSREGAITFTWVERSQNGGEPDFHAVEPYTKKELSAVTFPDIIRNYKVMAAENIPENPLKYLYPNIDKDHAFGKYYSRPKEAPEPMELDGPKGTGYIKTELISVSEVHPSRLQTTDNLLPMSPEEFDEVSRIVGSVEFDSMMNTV
Method: protein-binding microarray
Form: hairpin DNA
Medium: in vitro
Tested at: not given
Notes: whole hairpin DNA, median over replicate spots
Baseline: not given
Reading: higher = stronger binding
Shared flanks, not repeated: GAGGCC … GGCCTCACACTCTTTCCCTACACG
Oligonucleotide	median fluorescence [a.u.]
TTTACCGGAAGCCTCCTGGCTTCCGGTAAA	4400
TTTCACGGAAGCCTCCTGGCTTCCGTGAAA	1480
TTTCCCGCGAGCCTCCTGGCTCGCGGGAAA (5mC at 14)	935
TCCCCCGGAAGCCTCCTGGCTTCCGGGGGA	935
TTTCCAGGAAGCCTCCTGGCTTCCTGGAAA (5mC at 11)	4530
TGTCCCGGAAGCCTCCTGGCTTCCGGGACA (5mC at 35)	1580
CTTCCCGGAAGCCTCCTGGCTTCCGGGAAG (5mC at 7)	11700
TTCGCCGGAAGCCTCCTGGCTTCCGGCGAA (5mC at 9 33)	1210

Study 3
Target: Histone acetyltransferase KAT6A, winged helix 1, GST fusion (KAT6A, Homo sapiens, UniProt Q92794, residues 1-85)
Method: protein binding microarray
Form: double-stranded DNA, one strand shown
Medium: in vitro
Tested at: not given
Notes: 8-mer, flanks averaged, mean of 2 arrays, mostly near background
Baseline: not given
Reading: higher = stronger binding
Target sequence (chain): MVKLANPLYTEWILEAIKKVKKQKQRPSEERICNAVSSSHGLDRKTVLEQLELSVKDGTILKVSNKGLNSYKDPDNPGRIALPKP
Oligonucleotide	E-score
AGGGCGCG	0.286
AACAAGAG	-0.215
ATAGCTTC	-0.164
GATCGAAA	0.0228
AACAGTAG	-0.117
CAAGATAC	-0.154
AGTAATGA	-0.184
GTAGCTTA	0.0303

Single results of other studies
Starting sequence: PafA, mature enzyme, eGFP fusion (Elizabethkingia meningoseptica, UniProt Q9KJX5); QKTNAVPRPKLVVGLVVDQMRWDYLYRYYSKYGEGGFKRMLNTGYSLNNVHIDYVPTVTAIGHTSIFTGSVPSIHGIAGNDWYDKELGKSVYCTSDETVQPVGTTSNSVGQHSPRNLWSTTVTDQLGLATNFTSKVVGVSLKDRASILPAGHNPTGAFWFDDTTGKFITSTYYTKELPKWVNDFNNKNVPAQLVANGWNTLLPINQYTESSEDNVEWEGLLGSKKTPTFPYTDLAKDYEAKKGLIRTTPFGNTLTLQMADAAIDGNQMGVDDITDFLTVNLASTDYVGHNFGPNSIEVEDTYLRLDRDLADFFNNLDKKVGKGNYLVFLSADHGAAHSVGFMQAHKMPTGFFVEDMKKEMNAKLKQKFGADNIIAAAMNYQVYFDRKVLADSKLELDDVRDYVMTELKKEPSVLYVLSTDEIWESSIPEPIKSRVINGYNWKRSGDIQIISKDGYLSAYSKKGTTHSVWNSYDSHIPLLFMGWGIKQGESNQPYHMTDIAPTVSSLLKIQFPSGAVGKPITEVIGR
Substitution	target	assay	system	conditions	how to read	quantity	value
E216V	vanadate, free oxyanion	microfluidic competitive inhibition	in vitro, cell-free expressed	not given, derived from inhibition constants, unchanged parent 676 nM	lower = stronger binding	oxyanion analog dissociation constant	681 nM
